Published values collected from several papers.
Lines come from different studies, so protocols differ. Values joined by “and” are separate records of one study, mostly repeats; a detail may differ. ± gives the spread as reported.
Oprd1: Delta-type opioid receptor (Oprd1, Rattus norvegicus, UniProt P33533)
Chain of UniProt P33533 (whole entry, looked up): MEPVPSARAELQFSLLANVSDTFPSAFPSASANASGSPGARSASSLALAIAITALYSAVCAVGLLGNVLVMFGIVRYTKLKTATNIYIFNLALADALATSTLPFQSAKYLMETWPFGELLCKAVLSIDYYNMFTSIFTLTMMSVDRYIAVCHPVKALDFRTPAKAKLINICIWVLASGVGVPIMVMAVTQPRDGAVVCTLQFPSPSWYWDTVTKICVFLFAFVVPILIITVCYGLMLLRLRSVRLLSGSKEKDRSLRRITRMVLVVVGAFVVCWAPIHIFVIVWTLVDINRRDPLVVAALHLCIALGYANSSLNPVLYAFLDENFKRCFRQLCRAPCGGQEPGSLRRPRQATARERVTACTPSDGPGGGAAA
Chain of UniProt P54310 (whole entry, looked up): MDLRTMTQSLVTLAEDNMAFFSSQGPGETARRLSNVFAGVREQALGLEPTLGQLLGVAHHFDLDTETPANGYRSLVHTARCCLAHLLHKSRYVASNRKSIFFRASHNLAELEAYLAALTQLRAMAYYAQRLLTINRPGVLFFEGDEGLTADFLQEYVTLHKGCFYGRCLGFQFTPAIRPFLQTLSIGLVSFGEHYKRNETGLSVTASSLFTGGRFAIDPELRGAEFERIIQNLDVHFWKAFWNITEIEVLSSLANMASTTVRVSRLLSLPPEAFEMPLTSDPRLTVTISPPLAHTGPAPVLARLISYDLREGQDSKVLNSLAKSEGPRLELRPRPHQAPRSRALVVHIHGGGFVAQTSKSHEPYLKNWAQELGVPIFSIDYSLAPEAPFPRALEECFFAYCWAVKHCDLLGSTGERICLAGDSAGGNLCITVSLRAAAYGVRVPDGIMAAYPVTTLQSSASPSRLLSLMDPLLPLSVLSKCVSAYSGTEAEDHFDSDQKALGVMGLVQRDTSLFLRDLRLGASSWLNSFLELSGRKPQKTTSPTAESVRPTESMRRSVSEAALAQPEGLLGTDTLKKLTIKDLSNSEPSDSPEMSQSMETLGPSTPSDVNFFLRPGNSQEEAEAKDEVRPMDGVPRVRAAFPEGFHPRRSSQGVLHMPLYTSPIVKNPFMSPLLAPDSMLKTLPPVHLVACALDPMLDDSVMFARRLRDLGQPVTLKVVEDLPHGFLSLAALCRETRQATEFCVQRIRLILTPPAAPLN
Chain of UniProt A5GZW8 (whole entry, looked up): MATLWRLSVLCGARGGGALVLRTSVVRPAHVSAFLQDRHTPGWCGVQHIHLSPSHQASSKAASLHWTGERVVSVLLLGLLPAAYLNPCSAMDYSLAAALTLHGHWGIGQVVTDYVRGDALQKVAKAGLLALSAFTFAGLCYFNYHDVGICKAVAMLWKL
Chain of UniProt D0VWV4 (whole entry, looked up): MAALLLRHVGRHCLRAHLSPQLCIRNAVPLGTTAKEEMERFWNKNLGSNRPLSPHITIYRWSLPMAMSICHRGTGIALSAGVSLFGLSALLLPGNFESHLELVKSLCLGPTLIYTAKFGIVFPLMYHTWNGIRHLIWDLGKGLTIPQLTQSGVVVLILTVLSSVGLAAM
Chain of UniProt Q007T0 (whole entry, looked up): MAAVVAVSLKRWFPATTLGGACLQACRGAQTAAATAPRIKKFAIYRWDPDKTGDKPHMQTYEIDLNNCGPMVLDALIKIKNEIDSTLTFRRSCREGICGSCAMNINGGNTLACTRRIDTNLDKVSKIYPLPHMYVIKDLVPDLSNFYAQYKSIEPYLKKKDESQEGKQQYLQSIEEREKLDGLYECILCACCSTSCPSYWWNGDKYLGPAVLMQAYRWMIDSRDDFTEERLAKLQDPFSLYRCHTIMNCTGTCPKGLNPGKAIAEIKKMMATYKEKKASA
Chain of UniProt P10721 (whole entry, unmodified, looked up): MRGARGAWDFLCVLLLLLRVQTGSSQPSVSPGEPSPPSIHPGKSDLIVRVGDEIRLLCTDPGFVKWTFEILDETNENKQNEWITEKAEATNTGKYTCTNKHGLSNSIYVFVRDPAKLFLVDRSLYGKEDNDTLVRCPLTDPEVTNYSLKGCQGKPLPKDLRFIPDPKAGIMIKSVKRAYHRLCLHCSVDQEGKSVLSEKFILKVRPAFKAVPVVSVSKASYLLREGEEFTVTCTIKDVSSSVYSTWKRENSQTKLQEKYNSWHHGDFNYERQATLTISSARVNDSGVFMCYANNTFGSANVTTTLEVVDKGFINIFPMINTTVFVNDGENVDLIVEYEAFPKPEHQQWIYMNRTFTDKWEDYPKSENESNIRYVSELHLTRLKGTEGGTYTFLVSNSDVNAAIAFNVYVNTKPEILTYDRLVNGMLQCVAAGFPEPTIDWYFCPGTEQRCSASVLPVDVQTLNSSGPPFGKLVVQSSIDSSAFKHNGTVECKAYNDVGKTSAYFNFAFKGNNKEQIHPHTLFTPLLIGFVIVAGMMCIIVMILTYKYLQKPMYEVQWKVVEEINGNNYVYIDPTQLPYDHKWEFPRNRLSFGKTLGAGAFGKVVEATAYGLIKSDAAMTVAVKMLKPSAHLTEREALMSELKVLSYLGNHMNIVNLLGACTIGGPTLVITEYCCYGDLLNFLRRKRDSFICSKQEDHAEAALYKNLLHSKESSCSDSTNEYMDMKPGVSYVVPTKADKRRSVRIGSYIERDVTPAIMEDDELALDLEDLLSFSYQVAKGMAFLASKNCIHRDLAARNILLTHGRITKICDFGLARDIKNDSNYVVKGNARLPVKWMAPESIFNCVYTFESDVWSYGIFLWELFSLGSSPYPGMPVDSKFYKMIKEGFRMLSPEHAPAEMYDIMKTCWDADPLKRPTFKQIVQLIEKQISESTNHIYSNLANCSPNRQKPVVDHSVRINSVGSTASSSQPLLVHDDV
Chain of UniProt Q9UH17 (whole entry, looked up): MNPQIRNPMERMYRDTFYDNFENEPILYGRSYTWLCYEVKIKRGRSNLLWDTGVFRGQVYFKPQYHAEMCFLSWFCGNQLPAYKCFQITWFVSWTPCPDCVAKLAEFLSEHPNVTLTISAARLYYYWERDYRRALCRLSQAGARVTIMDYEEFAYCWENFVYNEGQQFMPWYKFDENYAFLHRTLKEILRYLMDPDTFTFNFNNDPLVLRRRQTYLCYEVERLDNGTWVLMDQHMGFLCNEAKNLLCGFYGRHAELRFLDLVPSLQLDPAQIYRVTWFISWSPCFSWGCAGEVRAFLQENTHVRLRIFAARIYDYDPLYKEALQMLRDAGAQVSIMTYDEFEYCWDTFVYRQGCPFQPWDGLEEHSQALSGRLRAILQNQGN
Chain of UniProt P35367 (whole entry, looked up): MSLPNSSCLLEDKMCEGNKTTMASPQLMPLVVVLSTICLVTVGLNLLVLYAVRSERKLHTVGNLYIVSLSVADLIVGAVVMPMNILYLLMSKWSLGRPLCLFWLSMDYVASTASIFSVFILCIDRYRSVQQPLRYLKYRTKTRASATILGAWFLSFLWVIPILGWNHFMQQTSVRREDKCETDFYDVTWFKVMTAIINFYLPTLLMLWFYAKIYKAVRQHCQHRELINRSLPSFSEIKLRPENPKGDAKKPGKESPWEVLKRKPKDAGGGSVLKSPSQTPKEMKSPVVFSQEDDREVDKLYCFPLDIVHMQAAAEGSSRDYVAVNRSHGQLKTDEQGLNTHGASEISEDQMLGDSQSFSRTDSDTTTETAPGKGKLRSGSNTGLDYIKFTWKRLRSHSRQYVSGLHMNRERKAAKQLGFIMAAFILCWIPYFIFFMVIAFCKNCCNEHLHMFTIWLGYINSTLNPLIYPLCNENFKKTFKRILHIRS
Chain of UniProt P00761 (whole entry, looked up): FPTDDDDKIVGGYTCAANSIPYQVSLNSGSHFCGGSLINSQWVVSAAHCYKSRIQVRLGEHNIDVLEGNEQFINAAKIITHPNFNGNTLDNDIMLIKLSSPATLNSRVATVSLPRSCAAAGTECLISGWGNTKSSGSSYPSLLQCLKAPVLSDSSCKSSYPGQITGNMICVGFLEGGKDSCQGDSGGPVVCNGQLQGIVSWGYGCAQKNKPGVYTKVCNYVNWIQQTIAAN
Chain of UniProt P25025 (whole entry, looked up): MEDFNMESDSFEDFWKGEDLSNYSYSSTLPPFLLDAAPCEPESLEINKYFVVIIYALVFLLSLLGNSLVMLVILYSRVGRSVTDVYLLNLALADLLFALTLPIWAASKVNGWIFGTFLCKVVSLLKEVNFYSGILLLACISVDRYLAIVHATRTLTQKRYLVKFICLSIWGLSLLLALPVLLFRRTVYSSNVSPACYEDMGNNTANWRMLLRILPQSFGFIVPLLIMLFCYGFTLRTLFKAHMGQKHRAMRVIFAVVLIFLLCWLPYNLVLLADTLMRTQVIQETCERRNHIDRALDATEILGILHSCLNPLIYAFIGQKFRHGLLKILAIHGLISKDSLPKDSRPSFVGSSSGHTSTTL

Compound	tested on	assay	test system	conditions	scale	endpoint	result
Cc1cc(C(=O)Nc2nc3cccc(C)c3n2[C@H]2CCCCN(C(=O)/C=C/CN(C)C)C2)ccn1	Trypanosoma brucei		STIB795, mouse acute HAT model	oral, 2.5 mg/kg once daily for 4 days, day 10	baseline: mice	survival	0%
N[C@H](C(=O)N1CCCC1)C1CCN(c2nccc3c(-c4ncc(Cl)cc4Cl)cccc23)CC1	AGTR1 (Homo sapiens, UniProt P30556)	functional response, agonist		10 µM		response	3%
C[C@@H](O)[C@@H]1CN([C@@H](CC2CCCCC2)CN2CCC[C@H]2CN2CCNC[C@@H]2CO)CCN1CCC12CC3CC(CC(C3)C1)C2	Oprd1	radioligand binding	rat brain membranes	500 nM, pH 7.5, 25 °C, with: 2 nM [3H]DPDPE		remaining binding	91.7%
OB(O)c1ccc(OCc2ccccc2)nc1F	Trypsin (Sus scrofa, UniProt P00761)				baseline: Ki trypsin over Ki AmpC	selectivity ratio	> 27800
CN(C)[C@H]1C[C@@]23CC[C@@]4(O2)C(=CC[C@]2(C)[C@@H](c5ccc6ccncc6c5)CC[C@H]24)C=C3[C@@H](O)[C@@H]1O	ROCK1 (Homo sapiens, UniProt Q13464)	probe labelling, inhibitor, KiNativ ATP probe MS	native lysate	0.1 µM		inhibition	15.2%
C/C(=N\OCCCN1CCCCC1)c1ccc(C(F)(F)F)cc1	HRH1 (Homo sapiens, UniProt P35367)	agonist, IP-One		10 µM		activation	2.33%
CN(C)CCCSC(=S)N1CCN(C(=O)/C=C/c2coc3ccccc3c2=O)CC1	Nucleoprotein (N, Tomato spotted wilt virus, UniProt P25999, Y184A)	binding, microscale thermophoresis		0.4883 µM	dose series	MST response	837 a.u.
CS(C)(=O)=Nc1ccc(-c2ccc(-c3nc4cc(O[C@@H]5CO[C@H]6[C@@H]5OC[C@H]6O)[nH]c4cc3F)cc2)cc1	IKBKE (Homo sapiens, UniProt Q14164)	enzyme activity, inhibitor		10 µM		inhibition	-4%
CC(C)CC(O)(CC(C)C)c1cn(C(=O)N2CCCC2)nn1	Lipe (Mus musculus, UniProt P54310)	enzyme activity, inhibitor	mouse, brain	i.p., 0.8 mg/kg, 4 h, single peptide	baseline: vehicle	ratio of ratios	0.4 and 0.57 and 0.52
CC(C)[C@H]1NC(=O)C[C@H]2/C=C/CCSSC[C@@H](NC1=O)C(=O)N[C@H](Cc1cccc3ccccc13)C(=O)NCC(=O)O2	AXL (Homo sapiens, UniProt P30530)	enzyme activity, inhibitor		10 µM		inhibition	7.8%
C=CC(=O)Nc1cc(-c2ccc(C(=O)N3CCCC(O)(CC)C3)cc2)ccc1F (stereo not drawn)	DNA dC->dU-editing enzyme APOBEC-3B, C-terminal domain (Homo sapiens, UniProt Q9UH17)	covalent adduct, intact protein MS		5 h, 1-fold, 25 µM		adducted protein	0%
Cc1sc2c(c1C)C(c1ccc(Cl)cc1)=NC(CC(=O)OC(C)(C)C)c1nnc(C)n1-2 (stereo not drawn)	CXCR2 (Homo sapiens, UniProt P25025)	agonist radioligand binding		1 µM		specific binding	105%
CCCCC/C=C\C/C=C\C/C=C\C/C=C\CCCC(=O)NCCc1ccc(O)c(O)c1	Trpv1 (Mus musculus, UniProt Q704Y3, E571S)	ion current, agonist, whole-cell patch clamp		E571S		Hill coefficient	1.91 ± 0.21
CC(C)(C)C(=O)OCOP(=O)(OCOC(=O)C(C)(C)C)C1CCCN(O)C1=O (stereo not drawn)	Hs-578T					log LC50	> -4 log M
CC[C@H](C)[C@H](NC(=O)[C@H](CCCNC(=N)N)NC(=O)[C@H](CCCNC(=N)N)NC(=O)[C@H](CC(C)C)NC(=O)[C@H](Cc1ccccc1)NC(=O)CNC(=O)CNC(=O)[C@@H](N)Cc1ccc(O)cc1)C(=O)N[C@@H](CCCNC(=N)N)C(=O)N1CCC[C@H]1C(=O)N[C@@H](CCCCN)C(=O)N[C@@H](CC(C)C)C(=O)N[C@@H](CCCCN)C(=O)O	GPR139 (Homo sapiens, UniProt Q6DWJ6)	Gαi3 activation, agonist, BRET	HEK293T/17	40 µM		Emax	65.8%
C[C@@H](O)[C@@H]1CN([C@@H](CC2CCCCC2)CN2CCC[C@H]2CN2CCNC[C@@H]2CO)CCN1CCCC1CCCC1	Oprd1	radioligand binding	rat brain membranes	500 nM, pH 7.5, 25 °C, with: 2 nM [3H]DPDPE		remaining binding	90.3%
CCOC(=O)[C@@H]1Cc2c(cc([N+](=O)[O-])cc2[N+](=O)[O-])[C@H](O)[C@]12C(=O)Nc1ccc(Br)cc12	KIT (Homo sapiens, UniProt P10721, T670I/V559D)	binding, competition with immobilised ligand		0.1 µM		remaining binding	95%
O=C1NC2(CC2)COc2ncc(F)cc2[C@H]2COCCN2c2ccn3ncc1c3n2			Sprague-Dawley rat, male, serum	oral, 2.5 mg/kg/day, end of treatment, 4-week subacute toxicity		serum triglycerides	0.34 ± 0.08 mmol/L

Compound	tested on	assay	test system	conditions	scale	endpoint	result
C[C@@H]1NC(=O)[C@H](CCCNC(=N)N)NC(=O)[C@H](Cc2ccc3ccccc3c2)NC(=O)[C@H]2CCCCN2C(=O)[C@@H]([C@H](C)O)NC(=O)[C@H](Cc2ccc(F)cc2)NC(=O)[C@@H](Cc2ccc(F)cc2)NC(=O)c2cc3cc(c2)C(=O)NC[C@H](NC(=O)[C@@H](Cc2ccccc2)NC1=O)C(=O)N[C@@H](Cc1ccccc1)C(=O)N[C@@H](Cc1ccc2ccccc2c1)C(=O)N[C@@H](CCCNC(=N)N)C(=O)N[C@@H](CCCNC(=N)N)C(=O)N[C@@H](CCCNC(=N)N)C(=O)N[C@@H](CCCNC(=N)N)C(=O)N[C@H](C(=O)N[C@@H](CCCCN)C(N)=O)CNC3=O	PPIA (Homo sapiens, UniProt P62937)	inhibitor		up to 5 µM, with: Suc-Ala-Glu-Pro-Phe-pNA		isomerase activity	no effect
CC[C@H](C)[C@H](NC(=O)[C@H](CO)NC(=O)[C@H](Cc1ccc(O)cc1)NC(=O)[C@H](Cc1ccc(O)cc1)NC(=O)[C@H](CC(N)=O)NC(=O)CNC(=O)[C@H](CO)NC(=O)[C@H](Cc1ccc(O)cc1)NC(=O)[C@H](CO)NC(=O)[C@H](CO)NC(=O)[C@H](CC(N)=O)NC(=O)COCCOCCNC(=O)CN1CCN(CC(=O)O)CCN(CC(=O)O)CCN(CC(=O)O)CC1)C(=O)N[C@@H](CC(C)C)C(N)=O [copper-64 labelled]		dynamic PET	KPC mouse Ptf1a-CreER tdTomato, pancreas	intravenous, 4.6 MBq/mouse, 0.6 min, 84 d after tamoxifen		tissue uptake	10.9 %ID/mL
Nc1ccc(/C=C/C(=O)N2CCc3c(oc4c(-c5ccc(F)cc5)cc(-c5ccc(C(=O)N6CCC(F)(F)CC6)cn5)cc34)C2)cn1	COQ8A (Homo sapiens, UniProt Q8NI60)	binding, competition with immobilised ligand		1 µM		remaining binding	100%
CN1CCC[C@@H]1C(=O)N[C@@H](Cc1ccc(-c2ccccc2)cc1)B(O)O	20S proteasome (Plasmodium falciparum, UniProt A0A5K1K7U1+Q8IJT1)				baseline: Tris over HEPES buffer	IC50 ratio	8
O=C1NC(=O)c2c1c1cc(F)c[n+]3c1c1c2c2cc(O)ccc2[n]1[Ru-4]312([N]=C=S)[S+]3CC[S+]1CC[S+]2CC3 (stereo not drawn)	KIT (Homo sapiens, UniProt P10721, D816V)	enzyme activity		100 nM, human enzyme, with: 10 µM ATP	baseline: untreated	remaining activity	91%
CCCc1cc2cc(-n3nc(CO)c4c3CC(C)(C)CC4=O)cc(N3CCC(O)CC3)c2c(=O)[nH]1	HSP90AB1 (Homo sapiens, UniProt P08238)	fluorescence polarization			baseline: apparent KD Hsp90α over apparent KD HSP90AB1	selectivity ratio	~20 fold
CN(C)[C@H](CNC(=O)/C=C/c1cccc2ccccc12)Cc1ccc(O)cc1	OPRM1 (Homo sapiens, UniProt P35372)	β-arrestin recruitment, agonist	HEK-293T			Emax	< 5%
CON(C(=O)c1cn(C)nc1C(F)F)C(C)Cc1c(Cl)cc(Cl)cc1Cl (stereo not drawn)	SDHD/SDHC/SDHB (Sus scrofa, UniProt A5GZW8+D0VWV4+Q007T0)	enzyme activity, inhibitor, DCIP reduction	pig	0.1 µM, with: DCIP 40 µM		reaction velocity	0.0111 µM/s and 0.0118 µM/s and 0.0107 µM/s
C#CCCCCOc1ccc2c(c1)CCCN2C(=O)CCl	DCN1-like protein 4 (Homo sapiens, UniProt Q92564)	mass spectrometry profiling, refers to: DCUN1D4	H460 cell lysate	100 µM over 10 µM, UniProt Q92564	baseline: high over low concentration	reactivity ratio	1.28
CC[C@@H](C)[C@@H](NC(=O)[C@@H](CCC(N)=O)NC(=O)[C@H](NC(=O)[C@H]1CCCN1C(=O)[C@H](NC(=O)[C@@H](CO)NC(=O)[C@@H](Cc1ccccc1)NC(=O)[C@H]1CCCN1C(=O)[C@@H](CCC(N)=O)NC(=O)[C@H](N)CCSC)[C@H](C)CC)C(C)C)C(=O)N[C@@H](C(=O)N[C@H](CC(C)C)C(=O)N[C@H](CCC(N)=O)C(=O)NCC(=O)N[C@H](CO)C(=O)N[C@H](CCCNC(=N)N)C(=O)N[C@H](CCCNC(=N)N)C(=O)N[C@H](CCCNC(=N)N)C(=O)N[C@H](CCC(N)=O)C(=O)NCC(=O)N[C@H](CCCNC(=N)N)C(N)=O)[C@H](C)O	Kcnma1 (Mus musculus, UniProt Q08460)	ion current, blocker, inside-out patch clamp	Xenopus oocytes	+80 mV, with: 10 µM cytosolic Ca2+		Hill coefficient	0.77
CCCC[C@H]1CNCCN1C[C@@H]1CCCN1C[C@H](CC1CCCCC1)N1CCN(CCc2ccc(Cl)c(Cl)c2)[C@H](Cc2ccc(O)cc2)C1	Oprd1	radioligand binding	rat brain membranes	500 nM, pH 7.5, 25 °C, with: 2 nM [3H]DPDPE		remaining binding	88.7%
COc1ccccc1-c1n[nH]c2nc(N[C@H]3CC[C@H](NS(=O)(=O)CC(C)C)CC3)ncc12		bead binding, competition bead pull-down, refers to: LINJ.19.1590	Leishmania donovani extract	10 µM	baseline: vehicle	relative abundance	0.98
Cc1ccc(NS(=O)(=O)c2c(C(=O)N3CCCCCC3)c(C)n(C)c2C)c(Cl)c1	HaCaT			3.704 µM, 60 h		viability	96.8% and 100%
CCc1nnc(-c2c(OC)cc(-c3cnc4cc(-c5cnn(C)c5)ccn34)cc2OC)o1	ADRA1A (Homo sapiens, UniProt P35348)	antagonist radioligand, radioligand binding		10 µM, SafetyScreen44 alpha 1 A mean	lower = stronger displacement	remaining binding	58.9%
COc1ccccc1-c1n[nH]c2nc(NC3CCN(C(=O)Cc4ccc(F)cc4F)CC3)ncc12		bead binding, competition bead pull-down, refers to: LINJ.35.5450	Leishmania donovani extract	10 µM	baseline: vehicle	relative abundance	1.06
Cc1cc(Nc2nc(C[C@@]3(C(=O)O)CCN(Cc4cccc(Cl)c4F)[C@H](C)C3)cc(C)c2F)[nH]n1	ADRB1 (Homo sapiens, UniProt P08588)	agonist		10 µM		activation	-0.3%
O=C(CF)N[C@H]1[C@H]([C@H](O)[C@H](O)CNC(=O)c2ccc(-c3ccccc3)cc2)O[C@@](OCc2cccc(Cl)c2Cl)(C(=O)O)C[C@@H]1O	CD22 (Homo sapiens, UniProt P20273)	isothermal titration calorimetry				-TΔS	0.21 ± 0.02 kcal/mol
C=C(c1ccccc1)[C@@H](N)P(=O)(O)O	PAL1 (Petroselinum crispum, UniProt P24481, Y110F)	binding, ITC				ΔH	-10.8 kcal/mol

For quick reference, copied from above:
Compound	tested on	assay	test system	conditions	scale	endpoint	result
C#CCCCCOc1ccc2c(c1)CCCN2C(=O)CCl	DCN1-like protein 4 (Homo sapiens, UniProt Q92564)	mass spectrometry profiling, refers to: DCUN1D4	H460 cell lysate	100 µM over 10 µM, UniProt Q92564	baseline: high over low concentration	reactivity ratio	1.28
CON(C(=O)c1cn(C)nc1C(F)F)C(C)Cc1c(Cl)cc(Cl)cc1Cl (stereo not drawn)	SDHD/SDHC/SDHB (Sus scrofa, UniProt A5GZW8+D0VWV4+Q007T0)	enzyme activity, inhibitor, DCIP reduction	pig	0.1 µM, with: DCIP 40 µM		reaction velocity	0.0111 µM/s and 0.0118 µM/s and 0.0107 µM/s
CN(C)[C@H]1C[C@@]23CC[C@@]4(O2)C(=CC[C@]2(C)[C@@H](c5ccc6ccncc6c5)CC[C@H]24)C=C3[C@@H](O)[C@@H]1O	ROCK1 (Homo sapiens, UniProt Q13464)	probe labelling, inhibitor, KiNativ ATP probe MS	native lysate	0.1 µM		inhibition	15.2%
Cc1cc(Nc2nc(C[C@@]3(C(=O)O)CCN(Cc4cccc(Cl)c4F)[C@H](C)C3)cc(C)c2F)[nH]n1	ADRB1 (Homo sapiens, UniProt P08588)	agonist		10 µM		activation	-0.3%
CC[C@@H](C)[C@@H](NC(=O)[C@@H](CCC(N)=O)NC(=O)[C@H](NC(=O)[C@H]1CCCN1C(=O)[C@H](NC(=O)[C@@H](CO)NC(=O)[C@@H](Cc1ccccc1)NC(=O)[C@H]1CCCN1C(=O)[C@@H](CCC(N)=O)NC(=O)[C@H](N)CCSC)[C@H](C)CC)C(C)C)C(=O)N[C@@H](C(=O)N[C@H](CC(C)C)C(=O)N[C@H](CCC(N)=O)C(=O)NCC(=O)N[C@H](CO)C(=O)N[C@H](CCCNC(=N)N)C(=O)N[C@H](CCCNC(=N)N)C(=O)N[C@H](CCCNC(=N)N)C(=O)N[C@H](CCC(N)=O)C(=O)NCC(=O)N[C@H](CCCNC(=N)N)C(N)=O)[C@H](C)O	Kcnma1 (Mus musculus, UniProt Q08460)	ion current, blocker, inside-out patch clamp	Xenopus oocytes	+80 mV, with: 10 µM cytosolic Ca2+		Hill coefficient	0.77
